Measured values collected from several papers.
Every numbered part comes from another study and shows a few of its results, in no order. Positions count from the first letter of the parent shown.
Chain of UniProt P62344 (whole entry, looked up): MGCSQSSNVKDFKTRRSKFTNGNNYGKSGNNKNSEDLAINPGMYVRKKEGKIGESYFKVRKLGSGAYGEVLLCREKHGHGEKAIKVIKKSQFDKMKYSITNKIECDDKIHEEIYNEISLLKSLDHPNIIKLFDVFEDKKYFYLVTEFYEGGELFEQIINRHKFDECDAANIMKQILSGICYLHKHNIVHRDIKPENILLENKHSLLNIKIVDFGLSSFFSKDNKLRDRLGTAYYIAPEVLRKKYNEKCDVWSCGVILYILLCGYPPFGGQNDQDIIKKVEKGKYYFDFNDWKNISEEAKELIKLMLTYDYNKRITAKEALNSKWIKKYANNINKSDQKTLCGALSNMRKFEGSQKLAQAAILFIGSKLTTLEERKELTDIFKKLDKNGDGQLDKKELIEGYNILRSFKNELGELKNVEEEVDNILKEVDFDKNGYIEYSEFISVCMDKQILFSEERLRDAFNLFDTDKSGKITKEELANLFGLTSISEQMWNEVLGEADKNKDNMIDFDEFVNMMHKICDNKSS

Sample 1
Target: Prothrombin, mature alpha-thrombin (F2, Homo sapiens, UniProt P00734)
Method: aptamer microarray, sandwich
Form: DNA with 2'F-ANA
Sample: in vitro
Tested at: 200 nM
Setting: whole 15-mer aptamer, many near background
With: Cy3 exosite-II aptamer, 400 nM
Direction: higher = stronger binding
Sequence: GGTTGGTGTGGTTGG
`2'F-ANA at 2 3 5 7 8 9 11`: “mean fluorescence intensity” 112 a.u.
`2'F-ANA at 1 3 6 8 12 15`: “mean fluorescence intensity” 622 a.u.
Under “mean fluorescence intensity”, `2'F-ANA at 2 5 7 8 12` is recorded as 147 a.u.
Under “mean fluorescence intensity”, `2'F-ANA at 1 4 6 8 9 10 11 12 14` is recorded as 56.3 a.u.
`2'F-ANA at 2 4 7 8 10 13`: “mean fluorescence intensity” 98.9 a.u.
`2'F-ANA at 2 4 5 6 8 10 11 13 14 15` — result for “mean fluorescence intensity”: 50.4 a.u.
`2'F-ANA at 8 15`: “mean fluorescence intensity” 676 a.u.
Under “mean fluorescence intensity”, `2'F-ANA at 7 9 14` is recorded as 268 a.u.

Sample 2
Target: CCNF, cyclin fold, Cln2 fusion (human)
Method: yeast growth competition, sequencing
Sample: yeast
Setting: strong parent motif
Baseline: not given
Direction: higher = stronger binding
Parent: viral docking peptide; YKVKRRLVFGADD
`L7A`: “normalised enrichment score” 0.422.
`A11W`: “normalised enrichment score” 9.35.
For `V3C`, “normalised enrichment score” read 8.36.
Under “normalised enrichment score”, `A11L` is recorded as 8.86.
`L7T`: “normalised enrichment score” 0.464.
For `K2N`, “normalised enrichment score” read 8.51.
`K2I` — result for “normalised enrichment score”: 8.61.
`D12F` — result for “normalised enrichment score”: 9.35.
`K2W` — result for “normalised enrichment score”: 9.28.
`R6F`: “normalised enrichment score” 7.7.
`V8L`: “normalised enrichment score” 9.1.
`R5S`: “normalised enrichment score” 1.62.
`K2C` — result for “normalised enrichment score”: 8.42.
`A11Q`: “normalised enrichment score” 8.52.

Sample 3
Target: PABPC1L2, full length, GST fusion (mouse, UniProt A0ABA7IW68)
Method: RNAcompete
Form: RNA
Sample: in vitro
Tested at: 20 nM
Setting: 7-mer, probes averaged, single round
Baseline: mean of 7-mers
Direction: higher = stronger binding
Construct (chain): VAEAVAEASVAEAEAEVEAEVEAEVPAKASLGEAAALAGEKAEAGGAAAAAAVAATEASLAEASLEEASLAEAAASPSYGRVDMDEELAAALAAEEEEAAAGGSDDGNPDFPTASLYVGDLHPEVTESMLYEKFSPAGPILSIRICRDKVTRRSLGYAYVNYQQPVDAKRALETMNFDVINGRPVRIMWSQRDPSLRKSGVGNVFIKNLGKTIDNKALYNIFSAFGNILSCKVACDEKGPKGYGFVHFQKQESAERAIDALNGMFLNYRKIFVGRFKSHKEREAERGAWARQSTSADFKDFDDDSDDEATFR
The 7-mer Z-score of `GCAGGUG` is reported as 0.128.
The 7-mer Z-score of `UCCGUUG` is reported as -0.353.
`AUUUGCU` gave a 7-mer Z-score of -0.351.
The 7-mer Z-score of `UGGGAAA` is reported as 0.635.
For `CGUGAGC`, the 7-mer Z-score was -0.38.
`CUCAGGU` gave a 7-mer Z-score of -0.0863.
`AAGCGAC` has a 7-mer Z-score of 0.428.
`GUUGCAG` has a 7-mer Z-score of -0.231.

Further values, each from its own experiment
The remaining binding of `O=C(N1CCS(=O)(=O)CC1)N1C[C@H](c2ccc(OC(F)(F)F)cc2)C[C@H](c2nc(C3CC3)no2)C1` is reported as 92% (Calcium-dependent protein kinase 1 (CDPK1, Plasmodium falciparum, UniProt P62344); cell-free assay, competition with immobilised ligand; 1 µM).

Excerpt of the above (sample 2):
`L7T`: “normalised enrichment score” 0.464.
Under “normalised enrichment score”, `A11L` is recorded as 8.86.
`A11W`: “normalised enrichment score” 9.35.
`L7A`: “normalised enrichment score” 0.422.
`R5S`: “normalised enrichment score” 1.62.
